# Measured values from different studies.
# Every numbered part comes from another study and shows a few of its results, in no order.

# Set 1 — method: protein binding microarray; form: double-stranded DNA, one strand shown; sample: in vitro; tested at: not given; reference: not given; direction: higher = stronger binding
# Target: Histone acetyltransferase KAT6A, winged helix 2, GST fusion (KAT6A, Homo sapiens, UniProt Q92794, residues 85-181)
# Setting: 8-mer, flanks averaged, mean of 2 arrays, mostly near background
# Target sequence (chain): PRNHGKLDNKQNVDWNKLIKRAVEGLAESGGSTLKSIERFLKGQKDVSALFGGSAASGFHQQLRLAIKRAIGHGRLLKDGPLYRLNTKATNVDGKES
Oligonucleotide,E-score
CCCAGCCG,0.108
ATACGGAA,-0.0155
CACGGTCA,-0.0838
ACTCTCTG,-0.205
GCGCGGCC,0.256
GAACATCA,-0.038
GGGAAACA,0.106
AAGCGCTT,0.273

# Set 2 — method: universal PBM; form: double-stranded DNA, one strand shown; sample: in vitro; tested at: 600 nM; direction: higher = stronger binding
# Target: Sal-like protein 4, full length isoform A (SALL4, Homo sapiens, UniProt Q9UJQ4, residues 1-1053)
# UniProt Q9UJQ4, sequence (whole entry, looked up): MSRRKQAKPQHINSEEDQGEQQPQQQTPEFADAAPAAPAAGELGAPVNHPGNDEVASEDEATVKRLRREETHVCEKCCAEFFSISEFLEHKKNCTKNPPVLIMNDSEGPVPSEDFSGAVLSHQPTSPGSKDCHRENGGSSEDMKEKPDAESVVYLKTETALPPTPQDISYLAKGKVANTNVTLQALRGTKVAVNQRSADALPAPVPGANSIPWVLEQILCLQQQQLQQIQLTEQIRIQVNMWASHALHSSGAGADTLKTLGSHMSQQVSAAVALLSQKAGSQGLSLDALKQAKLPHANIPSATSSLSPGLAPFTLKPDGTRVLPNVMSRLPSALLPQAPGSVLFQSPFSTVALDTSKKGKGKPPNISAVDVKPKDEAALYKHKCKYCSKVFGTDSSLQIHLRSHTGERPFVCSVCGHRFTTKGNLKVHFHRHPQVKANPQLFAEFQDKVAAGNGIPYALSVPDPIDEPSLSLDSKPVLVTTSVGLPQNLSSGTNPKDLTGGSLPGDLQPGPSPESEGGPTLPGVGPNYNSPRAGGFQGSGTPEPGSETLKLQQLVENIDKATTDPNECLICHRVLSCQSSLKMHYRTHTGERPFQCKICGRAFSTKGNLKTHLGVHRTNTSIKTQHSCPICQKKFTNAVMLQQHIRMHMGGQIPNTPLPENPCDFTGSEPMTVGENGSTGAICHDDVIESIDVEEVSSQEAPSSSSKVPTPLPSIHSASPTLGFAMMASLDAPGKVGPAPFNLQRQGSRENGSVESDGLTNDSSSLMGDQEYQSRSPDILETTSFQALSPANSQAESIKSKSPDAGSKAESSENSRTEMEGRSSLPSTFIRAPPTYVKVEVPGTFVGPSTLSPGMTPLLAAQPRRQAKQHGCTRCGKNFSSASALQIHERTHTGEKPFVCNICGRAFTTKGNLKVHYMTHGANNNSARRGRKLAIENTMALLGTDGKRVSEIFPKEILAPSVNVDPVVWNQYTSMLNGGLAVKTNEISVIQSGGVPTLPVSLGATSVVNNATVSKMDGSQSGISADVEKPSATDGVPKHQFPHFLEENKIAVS
# Setting: 8-mer, flanks averaged, mean of replicates
Oligonucleotide,E-score
CCCTCCCC,-0.162
GCCGTTTA,-0.0126
ACGTTTGG,0.0727
CGCATAGA,-0.0762
AATCTTCG,0.249
CTGGGAGC,-0.302
CTAAAGTA,0.0994
ACCGCTCC,-0.229
GCGAGTCA,-0.129
ACACTGTG,-0.097
CTACGCTA,-0.0744
CTTAAACA,0.0669
GTCGGAGA,-0.161

# Set 3 — method: protein-binding microarray; form: double-stranded DNA, one strand shown; sample: in vitro; tested at: 2200 nM top; setting: 60-bp whole probe; with: salmon DNA 0.4 mg/ml; reference: random background probes; direction: higher = stronger binding; shared flanks, not repeated: GCCTAGCAC … GTCTTGATTCGCTTGACGCTGCTG
# Target: Interferon regulatory factor 7, full length, phosphomimetic (IRF7, Homo sapiens, UniProt Q92985, residues 1-503, S471D/S472D/S475D/S476D/S477D/S483D/S484D/S487D)
# Target sequence (chain): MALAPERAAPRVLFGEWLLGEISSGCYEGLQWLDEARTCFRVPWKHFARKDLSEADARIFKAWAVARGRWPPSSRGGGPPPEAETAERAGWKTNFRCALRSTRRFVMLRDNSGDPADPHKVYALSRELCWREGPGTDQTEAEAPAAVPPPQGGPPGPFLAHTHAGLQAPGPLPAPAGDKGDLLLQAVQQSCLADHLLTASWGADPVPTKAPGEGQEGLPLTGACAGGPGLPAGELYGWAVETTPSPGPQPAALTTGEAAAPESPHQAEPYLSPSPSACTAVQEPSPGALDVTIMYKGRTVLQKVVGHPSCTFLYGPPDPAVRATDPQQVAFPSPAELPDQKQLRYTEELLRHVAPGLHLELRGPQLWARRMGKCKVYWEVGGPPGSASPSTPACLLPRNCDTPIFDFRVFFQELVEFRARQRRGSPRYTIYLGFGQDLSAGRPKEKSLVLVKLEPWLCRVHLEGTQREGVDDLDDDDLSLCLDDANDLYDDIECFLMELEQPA
Oligonucleotide,fitted relative affinity
GACGGTATCGCGTATCGGGACGTGCTA,0.4 z-score
TTGTCTCTGTCCCTGTTTCTGTGCTAG,2.55 z-score
TTAGGTTCCCTTTTCCTCTAGTGCTAG,2.85 z-score
TCAATTTTCTCTGTTCTACTGTGCTAG,1.73 z-score
GACGATCTCAGACTGGAGTCGTGCTAG,0.174 z-score
GAAGAAATTTAATAGTCACTGTGCTAG,-0.899 z-score
GGCATTTTTTTTATCAATCAGTGCTAG,-0.066 z-score
GGTCTTTCTGTTTTCTCCATGTGCTAG,5.05 z-score
TTAGATATTAGTCTCGATTAGTGCTAG,0.354 z-score

# Further values, each from its own experiment
Substance,target,test,system,conditions,scale,endpoint,result
"PhoQ, residues 284 288 289 292 302 303 NLGVHL","PhoP, residues 12 14 15 18 19 IQFRS (Escherichia coli, UniProt P23836)","Sort-seq, measured: YFP reporter",E. coli,"PhoQ-PhoP variant library, with: 10 µM Mg2+","reference: high Mg2+ state, higher = stronger signaling",fold induction,1.01
